Experimental data gathered from unrelated publications.
Each numbered part is a random draw from the data of one study; scales do not carry over between parts. Positions count from the first letter of the parent shown.

Set 1
Target: ABI1, truncated, D143A, DHFR fusion (Arabidopsis thaliana)
Technique: DHFR PCA, deep sequencing
Medium: yeast
Notes: methotrexate growth selection, single substitutions
Together with: (+)-ABA 1.4 µM
Baseline: wild-type fitted maximum
Direction: higher = stronger binding
Starting sequence: PYL1, truncated, DHFR fusion (Arabidopsis thaliana); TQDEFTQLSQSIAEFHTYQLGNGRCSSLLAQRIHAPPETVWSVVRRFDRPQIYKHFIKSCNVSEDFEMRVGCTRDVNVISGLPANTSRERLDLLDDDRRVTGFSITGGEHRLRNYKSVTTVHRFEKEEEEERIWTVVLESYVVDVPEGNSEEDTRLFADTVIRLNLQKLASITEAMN; partner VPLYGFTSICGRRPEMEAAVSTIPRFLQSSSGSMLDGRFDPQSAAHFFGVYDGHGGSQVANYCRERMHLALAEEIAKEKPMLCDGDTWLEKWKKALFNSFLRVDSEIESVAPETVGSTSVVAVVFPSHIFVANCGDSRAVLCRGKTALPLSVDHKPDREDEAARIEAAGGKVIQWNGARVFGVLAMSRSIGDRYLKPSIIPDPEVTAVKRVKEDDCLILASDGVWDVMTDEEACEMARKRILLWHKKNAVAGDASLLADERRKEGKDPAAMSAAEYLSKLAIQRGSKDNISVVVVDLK
| Change | relative binding score [%] |
| --- | --- |
| Q2I | 77.1 |
| F103K | 0.257 |
| C60S | -1.28 |
| S9T | 67.1 |
| E89C | -3.13 |
| G81W | 6.42 |
| D97C | 40.9 |
| N177W | 44.3 |
| S9F | 17.6 |
| C25W | -7.62 |
| F103A | -5.4 |
| D144F | -28.6 |
| V137Y | -6.79 |
| G107R | 0.836 |
| S140Y | 4.42 |
| L93H | 26.6 |
| S171K | 65 |
| T17V | 12.4 |
| R132T | 80.7 |
| S140R | 20 |
| V142R | 15.5 |
| F157Q | 10 |
| S27Q | 21.2 |
| T119A | -2.43 |
| E125V | 74.2 |

Set 2
Target: Max-binding protein MNT, bHLH-zipper, MAX partner unstated (MNT, Homo sapiens, UniProt Q99583, residues 220-300)
Technique: protein-binding microarray
Molecule type: double-stranded DNA, one strand shown
Medium: in vitro
Tested at: not given
Notes: k-mer, scored over probes, only values ≥0.25
Direction: higher = stronger binding
Residues (chain): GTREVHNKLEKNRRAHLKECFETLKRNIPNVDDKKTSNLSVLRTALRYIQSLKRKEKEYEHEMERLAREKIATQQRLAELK
| Sequence | E-score |
| --- | --- |
| CTGCACAC | 0.309 |
| ATCCCCAC | 0.325 |
| CACGCTGC | 0.426 |
| ATGCGCAT | 0.377 |
| AGAGCGTG | 0.351 |
| TCGTGTCA | 0.311 |
| GCCCCGCC | 0.302 |
| AAGCGCAC | 0.286 |
| CGTGCCTC | 0.325 |
| CCACGAGG | 0.47 |
| CATGTACG | 0.25 |
| ACACGCCA | 0.305 |
| GCACCTGC | 0.282 |
| CGAGCACA | 0.297 |
| ATCACGTG | 0.494 |
| CCCTACCA | 0.273 |
| GGGCCGCA | 0.253 |
| AGTCACAT | 0.371 |
| CAAACGTG | 0.38 |
| AACATGCA | 0.272 |
| CATGGTCA | 0.356 |
| ACATGCAA | 0.281 |
| CGCGTGCC | 0.419 |
| CACCCGCG | 0.274 |
| CGTGCCGC | 0.376 |

Set 3
Target: CCNB1, cyclin fold, Cln2 fusion (human)
Technique: yeast growth competition, sequencing
Medium: yeast
Notes: strong parent motif
Baseline: not given
Direction: higher = stronger binding
Starting sequence: E2F1 docking peptide (human); PPVKRRLDFETDH
| Change | normalised enrichment score |
| --- | --- |
| L7S | -0.0345 |
| D8V | 4.2 |
| T11S | 5.54 |
| R6N | 1.39 |
| E10S | 4.55 |
| D8C | 4.8 |
| R6Q | 3.94 |
| P2E | 4.81 |
| L7I | 3.12 |
| D12K | 4.37 |
| E10D | 5.33 |
| R6H | 3.02 |
| R6V | 3.32 |
| P2R | 4.4 |
| R5T | 2.32 |
| V3L | 3.52 |
| D8N | 5.27 |
| K4S | 4.92 |
| K4V | 5.77 |
| R5G | 1.29 |
| R5S | 0.625 |
| V3P | 1.43 |
| K4F | 4.5 |
| D8Q | 4.42 |
| P2T | 4.65 |

Other studies, line by line
| Substance | target | test | system | conditions | how to read | quantity | value |
| --- | --- | --- | --- | --- | --- | --- | --- |
| PhoQ, residues 284 288 289 292 302 303 ALVSVA | PhoP, residues 12 14 15 18 19 LYFRQ (Escherichia coli, UniProt P23836) | Sort-seq, measured: YFP reporter | E. coli | PhoQ-PhoP variant library, together with: 10 µM Mg2+ | baseline: high Mg2+ state, higher = stronger signaling | fold induction | 4.89 |
